Measured values from different studies.
Every numbered part comes from another study and shows a few of its results, in no order. Positions count from the first letter of the parent shown.

Sample 1 — technique: RNA Bind-n-Seq; form: RNA; sample: in vitro; concentration: 365 nM; baseline: no-protein control; direction: higher = stronger binding; measurement: RBNS enrichment (R)
Target: RNA binding protein fox-1 homolog 2, RRM domain, GST-SBP tag (RBFOX2, Homo sapiens, UniProt O43251-10, residues 100-194)
Setting: natural RNA segment, single round, ends assumed
Target sequence (chain): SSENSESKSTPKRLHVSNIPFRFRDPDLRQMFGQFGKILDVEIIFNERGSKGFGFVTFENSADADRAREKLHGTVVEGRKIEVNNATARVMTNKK
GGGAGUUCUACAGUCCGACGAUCGUCUGUGAUUUUGUACCUUGUGAAGGAGACAGAGGGAGGCAGAUGAAUAAACAGUUGCUCUCUGUCCCCUCCUGGGUGCCUGGCCUUCCUGGACCCAGGGAAUUCACCAGUGGAAUUCUCGGGUGCCAA: 0.184
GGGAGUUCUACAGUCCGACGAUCCAAAGGCUAUGCUUGCCUCCGGCUGAGUGCCUGGGAUAGGCCUUUUCUAUGUCUCCCCAAGGCUGGGGUGCUGAGCCUGCCUUCCUCACCACCUAGCCAUAGUCUCAAACUGGAAUUCUCGGGUGCCAA: 0.893
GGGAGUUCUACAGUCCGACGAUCCUUCUUGGGCCAGGUCUGUCCCAUGAGUCAAAUUUAGGAAAGCAAGGAUAGGUUUUGUCAUAGAUAUGGAUAGUUGGACAUACAAAAUAAAGACCUAGAAUCCAGUCAUAUGGAAUUCUCGGGUGCCAA: 0.471
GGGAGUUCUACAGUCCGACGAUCCCGCUCUGGCCAAGGGCUGUCUUCUGUGCACAUAGCUCAGGAGCCUGCAGCAGUUCCCUGUAUGGGUGGAUGUCCUCAGGGGCCAAGAAGAGAAGAAUGGGGACAACAGAUGGAAUUCUCGGGUGCCAA: 0.629
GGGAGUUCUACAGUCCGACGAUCUCUGAGAACCACUUGUCCCAGUAUGACACCUCUUACUAUCUCAGCAGCCUGUGCAGGGUCUCUGUCCUCAGAGCUCCAGACACCAGCAUCCUACUCUCAAGGAUGAAGUCUGGAAUUCUCGGGUGCCAA: 0.472
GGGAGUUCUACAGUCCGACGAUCCCUGUAUCUUCAUUUACUAUUAGUGAAGAGAUCUCUGUCCUGGAGGUUAUUCUAAACUUUCUUUGUAACUAUUGUUAUAGACAAUGGUUUCCAAACCAGUGGUUUCUAUGUGGAAUUCUCGGGUGCCAA: 0.266
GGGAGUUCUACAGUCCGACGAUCAUUGAAAUUGUGUUGAAUUGUAUGCUUUUUCACUUUUGAUAAAUAAACAUGUAAAAAUGUUUCAAAAAAAUAAUAAAAUAAAUAAAUACGAAGAAUAUGUCAGGACAGUCUGGAAUUCUCGGGUGCCAA: 1.19
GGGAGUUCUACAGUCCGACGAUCAAGGGCUAUUAAAAUAUUUUUACACCUUUGAAAAUUGCAGGCUUGGUACAAAGAGGUCUGUCAUCUUCCCCCUGGGAUAUAAGAUGAUCUAGCUCCCGGUAGAGGAUCACUGGAAUUCUCGGGUGCCAA: 0.474
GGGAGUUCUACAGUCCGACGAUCACCAGUUAGAUUCUUGCUCCCAGAUUGACUGUUAGUUUUCAGGAAACAAGGCUAUCUUUGGUCAUAUUCUCUGCUCUGGAAUUUCUGGGCUAGUCUUUCCUGAAUUCUAAUGGAAUUCUCGGGUGCCAA: 0.408
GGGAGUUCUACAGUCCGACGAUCUGAAGAUGGUUUAAGUUAUAGCUUCUUAAACGAAAGAAUAAAAUACUGCAAAAUGUUUUUAUAUUUGGCCCUUCCACCCAUUUUUAAUUGUGAGAGAUUUGUCACCAAUCUGGAAUUCUCGGGUGCCAA: 0.632
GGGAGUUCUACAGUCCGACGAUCUUUAUGACUUUACGUGCAAAUGUUUUGACCAUAUUGAUCAUAUAUUUUGACAAAUAUAUUUAUAACUACAUAUUAAAAGAAAAUAAAAUGAGUCAUUAUUUUAAAGAUAAUGGAAUUCUCGGGUGCCAA: 0.536
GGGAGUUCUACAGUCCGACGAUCCUUCCACCUCUAUCUCUCUUUCUCUCCUGCUGCACAAUCCUCCCACGACCCUUCCCACCCCAUUCACUGGGCUGGCUCCGACCUUUCCCAGGGCUAGCCUUCACUGCCCUUGGAAUUCUCGGGUGCCAA: 0.626

Sample 2 — technique: protein binding microarray; form: double-stranded DNA, one strand shown; sample: in vitro; concentration: not given; baseline: not given; direction: higher = stronger binding; measurement: E-score
Target: Histone acetyltransferase KAT6A, winged helix 2, GST fusion (KAT6A, Homo sapiens, UniProt Q92794, residues 85-181)
Setting: 8-mer, flanks averaged, mean of 2 arrays, mostly near background
Residues (chain): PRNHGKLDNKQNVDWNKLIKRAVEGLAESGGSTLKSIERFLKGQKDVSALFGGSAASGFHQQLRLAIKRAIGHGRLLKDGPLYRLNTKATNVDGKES
GACATATC: -0.0476
AGATGTCG: -0.0727
AAGGGCCT: 0.0608
AATAACTA: -0.183
ATACCACC: -0.0953
CCTATAAC: -0.342
GAGTTGAA: -0.104
GAGTCTTA: -0.256
ATCACTTA: -0.0422
AATCGTGA: -0.0213
GCGATAAA: -0.00255
CTATACGC: 0.03
CATGCACA: -0.0765
TGTGGAAA: -0.0804
ATACAGTG: -0.14
ACAGGGGC: -0.00619
AGTTATAG: -0.133
CGACCTAG: 0.126

Sample 3 — technique: protein-binding microarray; form: double-stranded DNA, one strand shown; sample: in vitro; concentration: 250 nM; setting: 60-bp whole probe; together with: salmon DNA 0.4 mg/ml; baseline: random background probes; direction: higher = stronger binding; measurement: log fluorescence; constant ends, left off below: GCCTAGCAC … GTCTTGATTCGCTTGACGCTGCTG
Target: Interferon regulatory factor 5, full length, phosphomimetic (IRF5, Homo sapiens, UniProt Q13568-2, residues 1-514, K96S/S451D/S453D/S456D/S462D)
TCAGGTTTCGGACTGGGTTAGTGCTAG: 4.83 z-score
TTAGGACTGCCACTGCTTTAGTGCTAG: -0.513 z-score
TTAAGTATCGGTTTCGGTTAGTGCTAG: 11.5 z-score
AAGGTTATCCATCTCAAGTAGTGCTAG: -0.0154 z-score
GACGATATCAGTTTCGAGGCGTGCTAG: 6.17 z-score
TTAAGTTCCCTTTTCCTTTAGTGCTAG: 0.952 z-score
GACGATTTCAGGTATCGAGACGTGCTA: 1.6 z-score
GACGAACTGTGGTTTCGAGACGTGCTA: 2.07 z-score
TTAGGTTGCGACTTTCGGTTAGTGCTA: 9.13 z-score
GATAATTTATAAATAAAAAAGTGCTAG: 0.855 z-score
TTAGATCTCAGTAACGATTAGTGCTAG: 0.177 z-score
TTAGATATCAGACTGGATTGGTGCTAG: 0.257 z-score
GACGCACTGAGACTGGAGACGTGCTAG: -0.219 z-score
TTAGGTACCGGGACTGGGTTAGTGCTA: -0.357 z-score
GACGATATCAGTCTCTAGACGTGCTAG: 1.16 z-score
GAGGGTTTCGGTTCCGGGACGTGCTAG: 8.62 z-score
TTAGGACTGGACTATCGGTCAGTGCTA: 4.11 z-score
TTAGGTTTCGACACAGGGTTAGTGCTA: 6.39 z-score
GGATGTCTGTAGCTCATTCTGTGCTAG: -0.356 z-score
CTAGAACTGAGTCTCGATTAGTGCTAG: 0.487 z-score
GACGGACTCGGGTTTCGGGACGTGCTA: 1.33 z-score
GACGGACTGGGGTATCGGGCCGTGCTA: -0.173 z-score
GACGGTTGCGGGACTGGGGACGTGCTA: -0.182 z-score
ACCTATAGGTTGTTTCTAATAGTGCTA: 0.739 z-score
TTAGGACTGGGGTTTTGGTTAGTGCTA: 0.288 z-score

Sample 4 — technique: DHFR PCA, deep sequencing; sample: yeast; together with: (+)-ABA 0.032 µM; baseline: wild-type fitted maximum; direction: higher = stronger binding; measurement: relative binding score
Target: ABI1, truncated, D143A, DHFR fusion (Arabidopsis thaliana)
Setting: methotrexate growth selection, single substitutions
Starting sequence: PYL1, truncated, DHFR fusion (Arabidopsis thaliana); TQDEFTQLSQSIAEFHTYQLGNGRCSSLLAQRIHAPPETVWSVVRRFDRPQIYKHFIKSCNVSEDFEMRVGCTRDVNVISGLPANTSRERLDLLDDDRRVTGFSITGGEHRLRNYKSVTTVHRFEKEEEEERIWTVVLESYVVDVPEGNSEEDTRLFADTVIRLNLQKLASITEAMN
I57L: 1.88%
V121Y: -3.05%
V136I: 21.1%
S150Y: -8.17%
K116H: 8.9%
S150I: -3.66%
E109G: 3.88%
E4M: 22.2%
D159T: -2.33%
T160C: 10.7%
F47G: -0.473%
F124T: -0.253%
N61Y: 32.1%
K168G: -4.15%
S150H: 22.8%
S42Y: 4.71%
R155I: 4.03%
L138F: 13.4%

Sample 5 — target: CCND1, cyclin fold, Cln2 fusion (human); technique: yeast growth competition, sequencing; sample: yeast; setting: weak parent motif; baseline: not given; direction: higher = stronger binding; measurement: normalised enrichment score
Starting sequence: MASTL docking peptide (human); PMIAKNLMCELDE; partner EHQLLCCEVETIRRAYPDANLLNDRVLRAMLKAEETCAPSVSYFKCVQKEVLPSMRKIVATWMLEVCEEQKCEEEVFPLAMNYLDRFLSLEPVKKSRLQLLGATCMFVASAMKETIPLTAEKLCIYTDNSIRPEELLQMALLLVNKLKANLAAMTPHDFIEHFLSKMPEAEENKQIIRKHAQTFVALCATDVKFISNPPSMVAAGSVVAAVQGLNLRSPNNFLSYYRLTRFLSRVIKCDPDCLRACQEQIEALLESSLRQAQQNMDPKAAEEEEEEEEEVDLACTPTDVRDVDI
M8Q: 0.283
M8Y: 0.258
M2N: 0.0606
A4S: 0.111
A4V: 0.139
L7H: -0.781
L11T: 0.16
L7D: -0.174
A4F: 0.479
N6I: 0.169
A4N: 0.434
K5C: 0.561
A4C: 0.328
M2H: 0.26
N6Y: 0.0272
K5W: 0.914
I3H: 0.0152
K5V: 0.141
M8C: -0.252
C9N: 0.0156
D12A: 0.185
E10S: -0.125
E10T: -0.237
N6R: -0.15
M2G: -0.023

A few entries again (sample 3):
AAGGTTATCCATCTCAAGTAGTGCTAG: -0.0154 z-score
GACGATATCAGTTTCGAGGCGTGCTAG: 6.17 z-score
TTAAGTTCCCTTTTCCTTTAGTGCTAG: 0.952 z-score
GACGATTTCAGGTATCGAGACGTGCTA: 1.6 z-score
GACGAACTGTGGTTTCGAGACGTGCTA: 2.07 z-score
TTAGGTTGCGACTTTCGGTTAGTGCTA: 9.13 z-score
GATAATTTATAAATAAAAAAGTGCTAG: 0.855 z-score
TTAGATCTCAGTAACGATTAGTGCTAG: 0.177 z-score
TTAGATATCAGACTGGATTGGTGCTAG: 0.257 z-score
GACGCACTGAGACTGGAGACGTGCTAG: -0.219 z-score
TTAGGTACCGGGACTGGGTTAGTGCTA: -0.357 z-score
GACGATATCAGTCTCTAGACGTGCTAG: 1.16 z-score
GAGGGTTTCGGTTCCGGGACGTGCTAG: 8.62 z-score
TTAGGACTGGACTATCGGTCAGTGCTA: 4.11 z-score
